Published values of several laboratories.
Protocols differ between the studies behind these lines. “And” joins repeats or separate records; there may be more than shown. ± marks the error that the study gave.
GBA1 R534H: Lysosomal acid glucosylceramidase (GBA1, Homo sapiens, UniProt P04062, R534H)
Chain of UniProt P04062 (whole entry, unmodified, looked up): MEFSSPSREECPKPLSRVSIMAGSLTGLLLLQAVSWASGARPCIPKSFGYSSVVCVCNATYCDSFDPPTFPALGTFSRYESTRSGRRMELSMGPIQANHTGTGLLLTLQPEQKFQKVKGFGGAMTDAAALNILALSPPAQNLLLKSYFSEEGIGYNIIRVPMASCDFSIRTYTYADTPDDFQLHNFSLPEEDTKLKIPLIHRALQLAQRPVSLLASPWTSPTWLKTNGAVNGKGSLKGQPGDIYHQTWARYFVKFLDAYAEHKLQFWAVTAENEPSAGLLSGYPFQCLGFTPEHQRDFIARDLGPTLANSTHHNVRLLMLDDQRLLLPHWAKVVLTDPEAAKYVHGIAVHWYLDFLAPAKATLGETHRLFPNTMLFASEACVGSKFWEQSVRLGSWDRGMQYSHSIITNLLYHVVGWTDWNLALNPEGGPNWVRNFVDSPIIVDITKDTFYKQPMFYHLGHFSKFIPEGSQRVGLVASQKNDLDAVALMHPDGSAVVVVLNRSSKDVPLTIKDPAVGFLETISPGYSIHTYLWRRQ

For Cc1ccc(OCC(=O)N(Cc2cccs2)c2ccn[nH]2)cc1, the remaining compound was 116 (dog plasma; 750 ng/mL, 0.25 h, 37 °C, unit not given; relative to: time zero).
Cc1nn(-c2nc3c(F)cc(F)cc3s2)c(O)c1C(c1ccc(C(F)(F)F)cc1)c1c(C)nn(-c2nc3c(F)cc(F)cc3s2)c1O: “apparent terminal volume of distribution (Vz/F, observed)” 3.06 L/kg and 4.28 L/kg and 2.71 L/kg (ICR mouse, plasma; intraperitoneal, 10 mg/kg).
The Tmax of C=C(NC(=O)c1csc(-c2nc3c(cc2O)-c2nc(cs2)C(=O)NC(C(C)O)C(=O)NC(=C(C)OC)c2nc(cs2)C(=O)NC2c4nc(cs4)C(=O)NC(COC(=O)c4c5c6c(cccc6n4O)COC(=O)C(OC4CC(C)(O)C(N(C)C)C(C)O4)C2OC5)c2nc-3cs2)n1)C(N)=O (centres unmarked) is reported as 6.08 h (ICR mice, Streptococcus pneumoniae ATCC 49169 infected, immunocompromised, blood; intravenous, 16 mg/kg/day twice daily).
With CN1CCCNC(=O)c2cccc(c2)C(=O)NCCCN(C)CCCNc2cccc3c2C(=O)c2cccc(c2C3=O)NCCC1 the body weight was 26 g and 31 g (mouse xenograft model; dose not given, day 8).
Under “Cmax at first steady-state dose”, CN1CCC[C@]1(C)/C=C/S(=O)(=O)NC(=O)Nc1c2c(cc3c1CC(O)C3)CCC2 (some centres unmarked) is recorded as 5600 ng/mL (human, plasma; oral, 50 mg twice daily of parent drug, day 14, metabolite of dosed drug).
The half-life of Cc1c(Cc2cccc(OC(C)(C)C(=O)O)c2)c2ccc(C(=O)N[C@@H](C)c3ccc(C(C)(C)C)cc3)cc2n1CC1CCC1 is reported as > 1 h (human liver microsomes; 1 µM, with: microsomes 1 mg/mL).
CNc1cc(N)c(C(N)=O)cn1 — result for “concentration at time”: 31.4 µM (Han Wistar rats, male, plasma; oral, 30 mg/kg, 0.25 h).
With Cc1nn(C(C)C)c(C)c1CN1CCCC(CCC(=O)NCc2ccccc2F)C1 (centres unmarked) the relative translation was 97% (Trypanosoma cruzi; reporter mRNA translation, inhibitor, refers to: capped polyadenylated Renilla luciferase mRNA; cell-free extract; concentration not given; relative to: control RNA).
The recovery of C=CC(=O)Nc1cc(Nc2nccc(-c3c[nH]c4ccccc34)n2)c(OC)cc1N(C)CCN(C)C is reported as 99.9% (storage stability; human plasma; 5 h, -80 °C, LLOQ level).
The mean SUV of O=C(Nc1cnccc1-c1ccc([18F])cc1)c1ccnc(NC(=O)C2CC2)c1 is reported as 0.33 (ex vivo gamma counting; FVB/NJ mice, both sexes, adipose tissue; intravenous, 120 min, with: tariquidar 15 mg/kg iv).
For CCC(C)n1ncn(-c2ccc(N3CCN(c4ccc(OCC5COC(Cn6cncn6)(c6ccc(Cl)cc6Cl)O5)cc4)CC3)cc2)c1=O (mixture of isomers), the relative translation was 118% (Trypanosoma cruzi; reporter mRNA translation, inhibitor, refers to: capped polyadenylated Renilla luciferase mRNA; cell-free extract; concentration not given; relative to: control RNA).
With CN([O-])C(=O)CN1CCN(CC(=O)N(C)[O-])CCN(Cc2ccccn2)CC1.[89Zr+4] the tracer uptake was 0.9 %ID/g (mouse, pancreas; intravenous, 1 h).
N#C[C@@H]1CC(F)(F)CN1C(=O)CNC(=O)c1ccnc2c(NC(=O)[C@H](CCCCNC(=O)CCOCCOCCOCCOCCOCCOCCNC(=O)CN3CCN(CC(=O)[O-])CCN(CC(=O)[O-])CCN(CC(=O)[O-])CC3)NC(=O)CCCc3ccc(I)cc3)cccc12.[177Lu+3] gave a tissue uptake of 3.99 ± 1.12 %ID/g (mouse, U-87 MG tumour xenograft, kidneys; 24 h).
With C/C(N)=N/C(=N\S(=O)(=O)c1ccc(C(F)(F)F)cc1)N1C[C@H](c2ccccc2)C(c2ccc(Cl)cc2)=N1 the Tmax was 0.1 h (C57BL/6 mouse, kidney; intravenous, 10 mg/kg).
The IC50 of COc1ccc(-c2ccc(COCCCCCN3C[C@H](O)[C@@H](O)[C@H](O)[C@H]3CO)cc2)cc1 is reported as 2.5 µM (GBA1 R534H; inhibitor, 4MU-β-D-glucopyranoside; with: 4MU-β-D-glucopyranoside).
For CCCCN1C(=O)c2cccc3c(NCCCCCCCCCCN4CCOCC4)ccc(c23)C1=O, “fluorescence quantum yield” read 0.92 (acetonitrile).
The dissociation half-life of O=C([O-])CN1CCN(CC(=O)[O-])CCN(CC(=O)c2ccc(-c3ccc(OCC(=O)O)cc3)cc2)CCN(CC(=O)[O-])CC1.[Eu+3] is reported as 5.5 h (Eu3+ luminescence decay; HCl 1 M; 1 µM, NaCl 0.15 M).
O=C(Nc1cccc(CNc2ncccn2)c1)c1cc(-c2ccccc2)n(-c2ccccc2)n1 gave a depletion of < 15% (human liver microsomes; 4 h).
C=CC(=O)N1CCCC(n2c(=O)c3ncccc3n(Cc3ccc(Oc4ccccc4)cc3)c2=O)C1 (centres unmarked) gave a compound remaining of 18.8% (metabolic stability; male beagle dog, hepatocytes; 1 µM, 2 h).
CC(C)(C)COCCCCCN1C[C@H](O)[C@@H](O)[C@H](O)[C@@H]1CO gave an IC50 of 100 µM (GBA1 R534H; inhibitor, 4MU-β-D-glucopyranoside; with: 4MU-β-D-glucopyranoside).

Some of these lines once more:
The IC50 of COc1ccc(-c2ccc(COCCCCCN3C[C@H](O)[C@@H](O)[C@H](O)[C@H]3CO)cc2)cc1 is reported as 2.5 µM (GBA1 R534H; inhibitor, 4MU-β-D-glucopyranoside; with: 4MU-β-D-glucopyranoside).
